# Measured values pooled from the literature.
# Every numbered part comes from another study and shows a few of its results, in no order. Values joined by “and” are separate records of one study, mostly repeats; a detail may differ.
# Sequence of UniProt Q99640 (whole entry, looked up): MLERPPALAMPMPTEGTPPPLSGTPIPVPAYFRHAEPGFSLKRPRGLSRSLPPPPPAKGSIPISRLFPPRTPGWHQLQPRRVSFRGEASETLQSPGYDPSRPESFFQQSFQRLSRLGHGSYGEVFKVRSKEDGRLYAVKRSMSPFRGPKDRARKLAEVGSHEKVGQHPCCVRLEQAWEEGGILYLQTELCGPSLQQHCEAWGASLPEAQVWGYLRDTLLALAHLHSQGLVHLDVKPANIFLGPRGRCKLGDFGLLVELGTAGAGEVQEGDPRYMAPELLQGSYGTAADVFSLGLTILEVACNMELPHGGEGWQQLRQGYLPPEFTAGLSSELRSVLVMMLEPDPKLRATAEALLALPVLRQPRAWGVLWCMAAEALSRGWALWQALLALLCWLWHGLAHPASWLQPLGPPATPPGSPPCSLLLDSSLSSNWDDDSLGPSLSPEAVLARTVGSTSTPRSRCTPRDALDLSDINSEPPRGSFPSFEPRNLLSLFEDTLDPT
# Sequence of UniProt P05164 (whole entry, looked up): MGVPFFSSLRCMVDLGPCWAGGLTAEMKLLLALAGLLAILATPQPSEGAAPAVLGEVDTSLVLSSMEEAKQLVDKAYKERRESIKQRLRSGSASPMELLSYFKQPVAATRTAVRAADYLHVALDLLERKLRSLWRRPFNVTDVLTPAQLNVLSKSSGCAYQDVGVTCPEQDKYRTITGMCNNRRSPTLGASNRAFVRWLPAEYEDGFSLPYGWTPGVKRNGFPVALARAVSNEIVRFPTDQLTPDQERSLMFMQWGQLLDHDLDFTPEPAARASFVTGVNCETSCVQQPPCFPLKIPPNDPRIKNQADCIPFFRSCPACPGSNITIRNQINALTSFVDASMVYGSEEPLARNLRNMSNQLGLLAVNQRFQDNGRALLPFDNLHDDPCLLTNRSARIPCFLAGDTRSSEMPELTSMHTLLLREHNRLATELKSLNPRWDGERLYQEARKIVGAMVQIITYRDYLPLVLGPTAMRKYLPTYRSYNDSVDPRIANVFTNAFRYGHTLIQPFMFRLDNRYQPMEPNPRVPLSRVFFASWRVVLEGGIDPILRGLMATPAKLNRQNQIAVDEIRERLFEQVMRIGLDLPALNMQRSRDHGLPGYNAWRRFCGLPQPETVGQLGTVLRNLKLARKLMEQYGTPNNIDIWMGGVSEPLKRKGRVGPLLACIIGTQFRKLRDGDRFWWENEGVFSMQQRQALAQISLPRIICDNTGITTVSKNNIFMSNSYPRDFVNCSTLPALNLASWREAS

# Study 1
# Compound: C[C@@H]1CN(c2ccc(-c3cc(C(=O)NCCOCCOCCOCCOCCNC(=O)Cn4cc(-c5[nH]cc(C(=O)N[C@@H](CC(N)=O)c6ccc(F)c(Cl)c6)c5-c5ccc(Cl)cc5F)cn4)ccc3F)cc2NC(=O)c2c[nH]c(=O)cc2C(F)(F)F)C[C@H](C)N1C
# Effect on: thermal unfolding
# Method: differential scanning fluorimetry
# Concentration: 5.5 µM
# Reading: higher = more unfolded
# WDR5: WD repeat-containing protein 5 (WDR5, Homo sapiens, UniProt P61964)
# DCAF1: DDB1- and CUL4-associated factor 1 (DCAF1, Homo sapiens, UniProt Q9Y4B6)
# Sequence of UniProt Q9Y4B6 (whole entry, looked up): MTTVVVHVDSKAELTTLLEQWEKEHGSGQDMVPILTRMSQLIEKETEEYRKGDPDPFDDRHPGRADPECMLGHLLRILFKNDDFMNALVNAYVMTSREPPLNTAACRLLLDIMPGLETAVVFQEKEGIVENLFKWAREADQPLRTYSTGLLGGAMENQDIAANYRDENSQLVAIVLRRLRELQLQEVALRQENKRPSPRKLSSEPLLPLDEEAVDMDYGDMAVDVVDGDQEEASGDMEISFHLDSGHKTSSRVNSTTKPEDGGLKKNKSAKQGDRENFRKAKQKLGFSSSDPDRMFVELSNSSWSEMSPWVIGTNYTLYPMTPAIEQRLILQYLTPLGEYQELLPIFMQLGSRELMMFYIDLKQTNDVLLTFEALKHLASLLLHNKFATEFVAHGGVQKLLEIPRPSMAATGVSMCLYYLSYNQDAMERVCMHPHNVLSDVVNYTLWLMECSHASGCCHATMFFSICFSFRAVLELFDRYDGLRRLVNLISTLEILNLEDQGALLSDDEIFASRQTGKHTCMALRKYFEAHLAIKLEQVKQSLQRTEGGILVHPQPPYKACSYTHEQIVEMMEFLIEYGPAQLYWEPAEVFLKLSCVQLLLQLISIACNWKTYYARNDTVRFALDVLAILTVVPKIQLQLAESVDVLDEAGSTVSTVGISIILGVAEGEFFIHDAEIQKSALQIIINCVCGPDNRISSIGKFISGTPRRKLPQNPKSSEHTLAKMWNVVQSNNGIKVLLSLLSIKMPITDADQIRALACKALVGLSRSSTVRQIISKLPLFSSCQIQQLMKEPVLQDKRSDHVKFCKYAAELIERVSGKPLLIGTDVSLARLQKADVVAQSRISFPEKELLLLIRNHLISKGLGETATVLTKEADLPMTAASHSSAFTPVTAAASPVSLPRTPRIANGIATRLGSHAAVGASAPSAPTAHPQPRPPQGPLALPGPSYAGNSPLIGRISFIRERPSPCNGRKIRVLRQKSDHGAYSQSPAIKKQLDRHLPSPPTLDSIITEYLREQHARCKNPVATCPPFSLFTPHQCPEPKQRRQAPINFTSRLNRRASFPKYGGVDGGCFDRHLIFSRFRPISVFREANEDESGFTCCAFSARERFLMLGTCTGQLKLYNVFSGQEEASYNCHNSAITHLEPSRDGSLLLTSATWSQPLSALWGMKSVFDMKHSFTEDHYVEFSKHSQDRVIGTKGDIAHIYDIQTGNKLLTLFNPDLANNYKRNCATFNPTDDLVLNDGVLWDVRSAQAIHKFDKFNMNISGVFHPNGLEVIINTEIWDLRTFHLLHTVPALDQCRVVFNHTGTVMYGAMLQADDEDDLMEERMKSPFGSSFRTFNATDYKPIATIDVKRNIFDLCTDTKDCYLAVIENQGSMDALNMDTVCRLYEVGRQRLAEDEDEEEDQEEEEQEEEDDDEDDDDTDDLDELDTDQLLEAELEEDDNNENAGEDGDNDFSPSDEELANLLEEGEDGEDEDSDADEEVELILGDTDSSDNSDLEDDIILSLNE
target,conditions,SYPRO Orange fluorescence
WDR5,69.61 °C,6760 a.u.
DCAF1,90.81 °C,34300 a.u.
DCAF1,79.61 °C,44600 a.u.
WDR5,32.2 °C,14400 a.u.
WDR5,54.81 °C,13700 a.u.
WDR5,62.01 °C,9250 a.u.
DCAF1,41 °C,10800 a.u.
WDR5,46.8 °C,14300 a.u.
WDR5,89.21 °C,43500 a.u.
DCAF1,51.4 °C,15300 a.u.
WDR5,27.6 °C,14800 a.u.

# Mixed results
Structure (SMILES),target or system,test,system,conditions,measurement,value
COc1ccc(Cl)cc1-c1cc(=O)[nH]c(=S)n1CC(N)=O,"Myeloperoxidase (MPO, Homo sapiens, UniProt P05164)","enzyme activity, inhibitor",,0.41 µM,remaining activity,65.8%
Cc1ncc(-c2cc3c(C(F)(F)F)c(-c4c(C)ccc(O)c4C)cnc3[nH]2)cn1,"Membrane-associated tyrosine- and threonine-specific cdc2-inhibitory kinase (PKMYT1, Homo sapiens, UniProt Q99640)","binding, HTRF",,41.15 nM,inhibition,87.1% and 87.7%
CN1C(=O)C(O)(C(=O)O)Oc2cc(F)ccc21 (stereo not shown),Arabidopsis thaliana,,Col-0,"50 µg/mL, seed germination, repetition mean",hypocotyl length,1.73 cm
Cc1nc(C)c(C=[N+]([O-])C(C)(C)C)nc1C,,Western blot,MPTP mouse model,10 mg/kg,pSer473-Akt/total Akt,165 and 218 and 105 and 99.6
Cc1ccc(O)c(C)c1-c1cnc2[nH]c(-c3cnc(N4CCC(CCN5CCN(c6ccc(NC7CCC(=O)NC7=O)cc6F)CC5)CC4)nc3)cc2c1C#N (stereo not shown),,,"female CD-1 mouse, plasma","intravenous, 1 mg/kg",clearance,40.6 mL/min/kg
CCCN1C(=O)C(O)(C(=O)O)Oc2cc(F)ccc21 (stereo not shown),Arabidopsis thaliana,,Col-0,"12.5 µg/mL, seed germination, repetition mean",hypocotyl length,1.87 cm
Cc1ncc(-c2cc3c(Cl)c(-c4c(C)ccc(O)c4C)cnc3[nH]2)cn1,HCC1569,"in-cell western, refers to: CDK1 phospho-Thr14",,10000 nM,pCDK1 (Thr14) level,80.7 RLU and 81.5 RLU
O=C(O)C1Oc2cc(F)ccc2N(Cc2ccccc2)C1=O (stereo not shown),Arabidopsis thaliana,,Col-0,"12.5 µg/mL, seed germination, single repetition",hypocotyl length,2.13 cm and 2.05 cm and 2.11 cm and 2.15 cm
Cc1ccc(O)c(C)c1-c1cnc2[nH]c(-c3cnc(N4CCC(CN5CCN(c6cc7c(cc6F)n(C6CCC(=O)NC6=O)c(=O)n7C)CC5)CC4)nc3)cc2c1C#N (stereo not shown),,,"CD-1 mouse, female, plasma","oral, 20 mg/kg",oral bioavailability,30.4%
CC(C)=CCN1C(=O)C(O)(C(=O)O)Oc2cc(F)ccc21 (stereo not shown),Arabidopsis thaliana,,Col-0,"100 µg/mL, seed germination, single repetition",hypocotyl length,1.42 cm and 1.4 cm and 1.43 cm and 1.48 cm
NC/C(=C\F)COc1cccc(Cn2c(=S)[nH]c(=O)c3[nH]cnc32)c1,,,human whole blood,1 h,blood to plasma ratio,0.98
